Results of several laboratories.
Numbered parts are unrelated; each lists some results of a single study. “And” joins repeats or separate records; there may be more than shown.

Series 1
Structure (SMILES): O=C(COc1ccccc1P(=O)(O)O)NCC(F)(F)c1cccc(F)c1
Cell line: human islets
Technique: qPCR
Tested at: concentration not given
Notes: unit not given
| test | setting | how to read | mRNA level |
| --- | --- | --- | --- |
| refers to: PIN1 | with: low glucose | relative to: low glucose control | 1.5 and 0.928 and 0.986 and 1.11 |
| refers to: USP8 | with: low glucose | relative to: low glucose control | 0.961 and 2.27 and 1.12 and 0.934 |
| refers to: INS | with: 20 mM glucose plus 500 µM palmitate | relative to: low glucose | 5.23 and 3.86 and 3.08 |
| refers to: BRAF | with: low glucose | relative to: low glucose control | 1.24 and 2.11 and 0.756 and 1.01 |
| refers to: NFATC1 | with: high glucose (20 mM) | relative to: low glucose control | 0.92 and 0.438 and 0.815 and 1.3 |
| refers to: RELA | with: low glucose | relative to: low glucose control | 0.962 and 1.75 and 1.1 and 1.05 |

Series 2
Cell line: A-375
Tested at: 100 µM
Time: 18 h
| Compound | viability [%] |
| --- | --- |
| CNCC[C@@H](Oc1ccccc1C)c1ccccc1 | 62.2 |
| CC(=O)OC/C=C(C)/C=C/C=C(C)/C=C/C1=C(C)CCCC1(C)C | 79.8 |
| COc1ccc2c(c1)c(CC(=O)O)c(C)n2C(=O)c1ccc(Cl)cc1 | 99.1 |
| O=C(CCNNC(=O)c1ccncc1)NCc1ccccc1 | 105 |
| CCc1cc2c(cc1N1CCC(N3CCOCC3)CC1)C(C)(C)c1[nH]c3cc(C#N)ccc3c1C2=O | 12.9 |
| COC(=O)[C@@H]1[C@H]2C[C@H]3c4[nH]c5ccccc5c4CCN3C[C@@H]2CC[C@@H]1O | 83 |
| Cc1ccc2c(Cl)cc(Cl)c(O)c2n1 | 50.4 |
| CC(C)N(CCCCOCC(=O)NS(C)(=O)=O)c1cnc(-c2ccccc2)c(-c2ccccc2)n1 | 43.4 |

Mixed results
Relative to: DMSO
| SMILES | tested on | test system | setting | quantity | result |
| --- | --- | --- | --- | --- | --- |
| CNC(=N)NCCC[C@H](NC(=O)[C@H](CC(C)C)NC(=O)NNC(=O)[C@H](Cc1ccccc1)NC(=O)[C@H](CO)NC(=O)[C@H](CC(N)=O)NC(=O)[C@@H](Cc1cccnc1)NC(=O)[C@H](N)Cc1ccc(O)cc1)C(=O)NCC(N)=O | sample C colorectal tumour organoid | – | 0.1 µM, replicate 2 | viability | 99.7% |
| c1ccc2c(-c3nn4c(-c5ccncc5)nnc4s3)c[nH]c2c1 | α-galactosidase (human, wild type) | healthy dermal fibroblasts | 0.5 µM, unit not given | remaining activity | 1.35 and 1.63 and 1.6 and 1.51 and 1.61 and 1.56 and 1.45 |

A few entries again (series 2):
| Compound | viability [%] |
| --- | --- |
| CC(C)N(CCCCOCC(=O)NS(C)(=O)=O)c1cnc(-c2ccccc2)c(-c2ccccc2)n1 | 43.4 |
